Assay results from different studies.
A part holds a random share of what one study measured.

Set 1 — method: protein binding microarray; molecule type: double-stranded DNA, one strand shown; matrix: in vitro; concentration: not given; baseline: not given; direction: higher = stronger binding
Target: Histone acetyltransferase KAT6A, both winged helices, GST fusion (KAT6A, Homo sapiens, UniProt Q92794, residues 1-181)
Notes: 8-mer, flanks averaged, mean of 2 arrays, mostly near background
Target sequence (chain): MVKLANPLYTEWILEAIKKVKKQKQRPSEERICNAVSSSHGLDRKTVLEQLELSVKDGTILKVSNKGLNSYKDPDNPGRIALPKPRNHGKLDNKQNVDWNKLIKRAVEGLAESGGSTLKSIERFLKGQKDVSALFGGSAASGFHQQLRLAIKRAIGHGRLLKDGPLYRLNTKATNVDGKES
`GAAACGCC` gave an E-score of 0.123.
`ATCATACA` gave an E-score of 0.0312.
`ATGTGTAG` gave an E-score of -0.0397.
The E-score of `AACGTTCA` is reported as 0.044.
With `AAAGAGGT` the E-score was -0.216.
`AGTACTCC` gave an E-score of -0.091.
`CCACTCAG` gave an E-score of -0.127.
With `AAGACTGC` the E-score was -0.0451.
For `ATAGGGAG`, the E-score was -0.227.
`CCGGCTAG` has an E-score of 0.152.
`CAAAGATA` gave an E-score of -0.152.
For `GACTACAC`, the E-score was -0.0185.
For `ACATCGAG`, the E-score was -0.179.
`AGAACGCA` gave an E-score of -0.0759.
`CTCGATCC` has an E-score of -0.132.
The E-score of `GTATCGTA` is reported as 0.01.
The E-score of `TAATGGAA` is reported as -0.0272.
For `ACTGGACG`, the E-score was 0.0869.
For `CGTTCGGA`, the E-score was 0.206.
The E-score of `CATCCTTC` is reported as -0.0921.
`ACCCGGAG` gave an E-score of 0.0621.
For `CAAATCAC`, the E-score was 0.0226.
The E-score of `AGGAGGAC` is reported as -0.235.

Set 2 — method: RNA Bind-n-Seq; molecule type: RNA; matrix: in vitro; concentration: 365 nM; baseline: no-protein control; direction: higher = stronger binding
Target: RNA binding protein fox-1 homolog 2, RRM domain, GST-SBP tag (RBFOX2, Homo sapiens, UniProt O43251-10, residues 100-194)
Notes: natural RNA segment, single round, ends assumed
Target sequence (chain): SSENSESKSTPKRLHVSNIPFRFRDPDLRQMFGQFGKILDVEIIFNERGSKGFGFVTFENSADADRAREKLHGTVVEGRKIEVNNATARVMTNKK
`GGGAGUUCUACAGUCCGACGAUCCAUAUGGCUAGCACCAUGGACUAUAUAUACCCACUGACCGAUUUUCAUUAAAUUUUGUCUUAUAAACAUUGUUGGGUAAUUGAAGCUAUCUGUGUAAUAUUAAAAUAUAGUGGAAUUCUCGGGUGCCAA`: “RBNS enrichment (R)” 0.401.
For `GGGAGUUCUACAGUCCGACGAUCCAACUAUGCACACAGCACUCGCUCUUAGCUCCUCUGUCCGGGCUACUAGGAGUGAGACCAGCUUCUGGCAACUGCCCCAGCUCCAGGCCAUCCCAUAGCCCCUCCUCUUCUGGAAUUCUCGGGUGCCAA`, “RBNS enrichment (R)” read 0.441.
`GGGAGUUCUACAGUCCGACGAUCGCUAUUUACCAGGGUAGAAAAAGGAGCUUACCUCCCACCUUUGGUCCUAAGUCCCUGCCCCCUCCCCUUCACACCAUAACUAGGUAACAGUUUGAUAACUAGGGAAGAAAUGGAAUUCUCGGGUGCCAA` — result for “RBNS enrichment (R)”: 0.263.
For `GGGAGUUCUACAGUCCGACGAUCAGGCUUUCCUGGAGCAGGCCAGUGAGUGUAGACGUGUGUAAAGAUGUCGCCAGUUCUCACUGUCUGUCAGCUCACUGAGCUGCCCUUCAUCCAUGGUCCUUGAGCUCCAGUGGAAUUCUCGGGUGCCAA`, “RBNS enrichment (R)” read 0.248.
For `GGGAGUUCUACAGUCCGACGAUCCAGUGGUUCACCUUCCUGGGCUGUCCCCAGUGGUCACGUCCUGCCUGGCUUCCUACUUGGGUAUAGCAUGUCCAAACUGGGCUCUGAACACUACAGCCUGCCUUGGAGCUUGGAAUUCUCGGGUGCCAA`, “RBNS enrichment (R)” read 2.57.
`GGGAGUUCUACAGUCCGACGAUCUGGGAGGCAGCUGCAGAUGGGAUUUCUGAGUUAAGGACAAGGUCUACAGAGUGAGUUCCAGGACAGCCGGGGCUAUACAGAGAAACCCUGGGGAAACCCUUGGGGAAAAAUGGAAUUCUCGGGUGCCAA`: “RBNS enrichment (R)” 0.267.
`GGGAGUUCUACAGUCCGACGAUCAAAUAAAAGCCCAGGUCUGAGAUGUUCACACAAGCAAUUUCUCUGCACUGCUGUGUGGGCCGUGCAUGAUGUUUCCCCAUCAUUUCUUAAGACUGUUUUCCUGUGUAAGUUGGAAUUCUCGGGUGCCAA`: “RBNS enrichment (R)” 0.794.
For `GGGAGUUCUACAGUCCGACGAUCACAUUAAUAUUAUUAAUAUAAUAAUGGUGAUGGUGAUGAUGAAAACUGAGGACUUUAAAAGAGAUUUUCCCUUCCCAAACGUGUCUGGACAGUACCUGAUUGUAUUUUUUUGGAAUUCUCGGGUGCCAA`, “RBNS enrichment (R)” read 0.334.
`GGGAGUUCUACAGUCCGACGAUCCAGCACAUUGCUAUUAAUAGUAUGGAAAUAAUGGUCCCUCUGUUUCAUUGAAUUGCUGAAGUAAUGAUAAUGCCAUGAACCAGGAGAAGAUGGUUGUGGGGGUUUCUAGGUGGAAUUCUCGGGUGCCAA`: “RBNS enrichment (R)” 0.467.
For `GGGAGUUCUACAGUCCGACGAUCUAUUAACCAUGUUGGGUGGAUAGCGGCAGAGCAAAAAGUUUGAAUGGGCUAGAGGUGGGAAGCUUGAGUGUUUAAUAAAAUGAGGCUUUUGGAAAGAAAGAUGAAAACGUUGGAAUUCUCGGGUGCCAA`, “RBNS enrichment (R)” read 1.53.
`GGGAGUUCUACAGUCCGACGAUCGGACGAGUGUGAUUUUUUGUUGAGUGCAUUACAUCUUCACAUGGGGGCGGGGAGGUCUUUUCCCUGCCCAUGUUUUUUUGUGCUUAUUAGAGGUGCAAACAGCGAGCGAUUGGAAUUCUCGGGUGCCAA`: “RBNS enrichment (R)” 0.319.
`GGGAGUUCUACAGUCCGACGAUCGAAUAAAAGGGAAUGUUUUGGCACCUGAUAUAAUCUGCCAGGCUAUGUGACAGUAGGAAGGAAUGGUUUCCCCUAACAAGCCCAAUGCACUGGUCUGACUUUAUAAAUUAUGGAAUUCUCGGGUGCCAA` — result for “RBNS enrichment (R)”: 2.3.

Set 3 — method: RNA Bind-n-Seq; molecule type: RNA; matrix: in vitro; concentration: 200 nM; notes: whole 134-nt RNA, ends assumed; together with: 150 mM LiCl; baseline: input library; direction: higher = stronger binding; all molecules: 7-deaza-guanosine replaces G
Target: Ras GTPase-activating protein-binding protein 1, full length (G3BP1, Homo sapiens, UniProt Q13283)
Sequence of UniProt Q13283 (whole entry, looked up): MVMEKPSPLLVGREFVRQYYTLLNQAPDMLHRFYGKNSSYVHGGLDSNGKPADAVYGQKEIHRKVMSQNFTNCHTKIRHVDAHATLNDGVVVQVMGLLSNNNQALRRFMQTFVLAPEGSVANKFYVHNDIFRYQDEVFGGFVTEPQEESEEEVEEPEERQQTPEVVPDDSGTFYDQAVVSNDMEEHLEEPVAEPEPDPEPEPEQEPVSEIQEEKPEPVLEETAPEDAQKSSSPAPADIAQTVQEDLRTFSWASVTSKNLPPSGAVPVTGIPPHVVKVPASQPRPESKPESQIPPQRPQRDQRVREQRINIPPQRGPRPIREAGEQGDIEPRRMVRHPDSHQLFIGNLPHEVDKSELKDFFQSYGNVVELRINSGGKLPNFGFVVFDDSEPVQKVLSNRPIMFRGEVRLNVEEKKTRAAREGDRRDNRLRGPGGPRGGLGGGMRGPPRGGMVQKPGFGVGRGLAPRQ
`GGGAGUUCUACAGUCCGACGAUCAGUCCUGUGCUACACAUCGUAUGUACCGAAUCAAACCCCCAAAUUUAAACCCCCAAAAAAGUAUUAUGUUACGCCGUUCGGAUCUGCACUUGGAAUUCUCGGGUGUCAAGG` gave a log2 enrichment of 1.44.
The log2 enrichment of `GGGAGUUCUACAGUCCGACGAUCAAGUCCUGUGCUACACAUCGUAUGUACCGAAUCGGGAAAGGGUUUGGGAAAAAGGGAAAGUAUUAUGUUACGCCGUUCGGAUCUGCACUUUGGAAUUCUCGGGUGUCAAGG` is reported as -1.24.
The log2 enrichment of `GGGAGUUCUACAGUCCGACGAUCUGGCCCUGGUGGCAUGCGGGGAGGAAGAGGUGGCGUCAUGGAUCGUGGUGGUCCCGGUGGAAUGUUCAGAGGUGGCCGUGGUGGAGACAGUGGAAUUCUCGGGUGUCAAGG` is reported as 0.959.
`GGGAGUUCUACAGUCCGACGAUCAGAAAGCCCAGGAGGAACCACCUGCCAAGCUGCUGGAUGACCUUUUCCGAAAGACCAAGGCAGCUCCCUGCAUCUAUUGGCUCCCACUGAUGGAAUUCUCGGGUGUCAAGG` has a log2 enrichment of -0.341.
`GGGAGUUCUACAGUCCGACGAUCCCUGUGCUACACAUCGUAUGUACCGAAUCGGGGUUUUUUUGGGGUUUUUUUGGGGAGGGGAAAGUAUUAUGUUACGCCGUUCGGAUCUGCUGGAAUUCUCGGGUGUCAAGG` gave a log2 enrichment of 1.13.
For `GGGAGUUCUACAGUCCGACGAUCACCAUGCAGGUGGGCAUCUUUGGGAAGUGGGGCAAGGGGGGGAAAAGGAGGGGGGUAACACUUUGGGAACAGGUGGUCCCAGGUCGUUUCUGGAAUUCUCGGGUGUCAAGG`, the log2 enrichment was 0.268.
With `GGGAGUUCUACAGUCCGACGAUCCAGUUUAAGAGGGGUUUCAUGCAAGGGCAUGUAAAUAGACAAGAAAAAGAAGAAAAAGAAGCAAUAUAUAAAGAACGUUGGCCAGAUUAUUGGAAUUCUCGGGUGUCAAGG` the log2 enrichment was 0.163.
For `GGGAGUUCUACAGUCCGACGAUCUGCAGGGUCUGGGUAGCAGCUGGGCUUCCAGCUUUCUCCUUGCACCUGACUUGGGCUUUUUUCUCCUCACAGGAUGGGCCUUGACGGCAUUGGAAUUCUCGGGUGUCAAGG`, the log2 enrichment was -1.23.
For `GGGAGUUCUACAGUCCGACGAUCUGCCUGGCCCAGUGCUGGGUUUGCCUUGUUGACGAUGCGCUUGGAUUGUUAAGGACACCGAUGUUCAGAACCCGGGAAGAGUCAUCUUAAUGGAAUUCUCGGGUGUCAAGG`, the log2 enrichment was -2.45.
With `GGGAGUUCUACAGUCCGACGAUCGCAGGAAGUAUAAACAAAUGGAAAUGCUUCGGAUAGUGGCAGGGGUGGGGGUUGCUAAGGAAAGGGUGGGAUGGGAGUGGGUAAAGAGUUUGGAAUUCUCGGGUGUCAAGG` the log2 enrichment was -0.0314.
`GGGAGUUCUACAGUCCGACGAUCCACAGACAACACGCACCCACACAGACACAGAGGGAAGGGGUUGGGAUGGGGACAGGGUGCACAGCAGGGCGGGGUAGGAUCCCAGCCCCUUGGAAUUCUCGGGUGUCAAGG` gave a log2 enrichment of 0.95.

Set 4 — method: RNAcompete; molecule type: RNA; matrix: in vitro; concentration: 20 nM; notes: 7-mer, probes averaged, single round; baseline: mean of 7-mers; direction: higher = stronger binding
Target: PABPC1L2, full length, GST fusion (mouse, UniProt A0ABA7IW68)
Residues (chain): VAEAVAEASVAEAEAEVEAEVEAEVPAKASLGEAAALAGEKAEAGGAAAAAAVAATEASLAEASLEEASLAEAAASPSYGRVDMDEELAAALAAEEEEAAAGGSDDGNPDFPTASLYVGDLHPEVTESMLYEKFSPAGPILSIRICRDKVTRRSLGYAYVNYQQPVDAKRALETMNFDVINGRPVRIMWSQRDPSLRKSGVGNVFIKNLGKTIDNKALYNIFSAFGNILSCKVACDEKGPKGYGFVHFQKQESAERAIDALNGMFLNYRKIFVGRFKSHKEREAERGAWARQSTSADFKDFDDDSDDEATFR
The 7-mer Z-score of `UUAUAGU` is reported as -0.248.
`CAGGGUA` has a 7-mer Z-score of 0.0569.
With `GGAGUUC` the 7-mer Z-score was -0.164.
For `AAGAUCA`, the 7-mer Z-score was 0.316.
For `CCAAAGU`, the 7-mer Z-score was -0.00289.
`UAACCCA` has a 7-mer Z-score of -0.229.
With `CCAAGGC` the 7-mer Z-score was -0.0373.
For `GUCUGAU`, the 7-mer Z-score was -0.255.
`AUUUGCG` gave a 7-mer Z-score of -0.391.
With `GUUAAGC` the 7-mer Z-score was -0.24.
`AACAGGA` has a 7-mer Z-score of 0.695.
For `ACGCGUU`, the 7-mer Z-score was -0.222.
`GGCGGGU` has a 7-mer Z-score of 0.302.
`UCGAGAG` gave a 7-mer Z-score of -0.135.
`GCAAUAC` has a 7-mer Z-score of 0.00436.
`GGUAUGU` has a 7-mer Z-score of 0.0261.
With `CUUGCGU` the 7-mer Z-score was -0.369.
The 7-mer Z-score of `GUUGACU` is reported as -0.168.
With `ACUCAAA` the 7-mer Z-score was 0.539.
`AGUUAUU` gave a 7-mer Z-score of -0.206.
The 7-mer Z-score of `CUAGAGC` is reported as 0.0243.
`UUUUGUC` has a 7-mer Z-score of -0.385.
`CAAAACA` gave a 7-mer Z-score of 4.21.
`AGGGUCU` has a 7-mer Z-score of -0.0917.
